Published values from different studies.
Each line is one published result; not all experiments were run side by side. “And” joins repeats or separate records; there may be more than shown. Numbers after ± are the reported error. ≈ marks a conversion by molar mass, not a printed value.

Structure (SMILES) | tested on | assay | system | setting | how to read | endpoint | result
CCCC[C@H](NC(=O)COCCOCCNC(=O)CN1CCN(CC(=O)O)CCN(CC(=O)O)CC1)C(=O)N[C@H]1CC(=O)NCCCC[C@@H](C(N)=O)NC(=O)[C@H](Cc2c[nH]c3ccccc23)NC(=O)[C@H](CCCNC(=N)N)NC(=O)[C@@H](Cc2ccccc2)NC(=O)[C@H](Cc2c[nH]cn2)NC1=O [technetium-99m labelled] |  |  | C57 mouse, normal organs | iv, 0.037 MBq, 2 h |  | tissue uptake | < 1.8 %ID/g
COC1OC(C)C(OC2OC(C)C(O)C(OC3OC(C)C(OC4OC(C)C(O)C(OS(=O)(=O)O)C4OS(=O)(=O)O)C(OS(=O)(=O)O)C3OS(=O)(=O)O)C2OS(=O)(=O)O)C(OS(=O)(=O)O)C1OS(=O)(=O)O (stereo not drawn) |  |  | human plasma | 128 µg/mL | reference: control | prothrombin time prolongation | 1.03 fold
CCCC[C@H](NC(=O)CCCCCCCNC(=O)CN1CCN(CC(=O)O)CCN(CC(=O)O)CC1)C(=O)N[C@H]1CC(=O)NCCCC[C@@H](C(N)=O)NC(=O)[C@H](Cc2c[nH]c3ccccc23)NC(=O)[C@H](CCCNC(=N)N)NC(=O)[C@@H](Cc2ccccc2)NC(=O)[C@H](Cc2c[nH]cn2)NC1=O [technetium-99m labelled] |  |  | C57 mouse, spleen | intravenous, 0.037 MBq, 2 h |  | tissue uptake | 0.07 ± 0.06 %ID/g
Oc1c(/N=N/c2ccccn2)ccc2ccccc12 | Mus musculus | gene silencing, high-content imaging | LDR reporter GFP cells | 30 h, retest run 1 |  | Emax | 14%
O=C(N/N=C/c1cc[n+](Cc2ccccc2)c2ccccc12)c1cccc(C(=O)N/N=C/c2cc[n+](Cc3ccccc3)c3ccccc23)c1 | hp2 hairpin duplex DNA | FRET melting |  | 1 µM, together with: ds26 10 µM |  | ΔTm | 0.8 ± 0.2 °C
Cc1ccc(C(C)C)c(OCc2ccc(C(=O)N/N=C/c3cccc(O)c3O)cc2)c1 | Mus musculus | gene silencing, high-content imaging | LDR reporter GFP cells | 30 h, retest run 2 |  | Emax | 41%
O=S(=O)(c1ccc(-c2ccc3ncnc(Nc4ccc(OCc5cccc(F)c5)cc4)c3c2)cc1)N1CCOCC1 | Leishmania major | intracellular amastigote growth, luciferase | RAW264.7 macrophages |  |  | EC50 | 0.47 µM
CO[C@@H]1[C@@H](OC(N)=O)[C@@H](O)[C@H](Oc2ccc3c(O)c(NC(=O)c4ccc(O)c(CC=C(C)C)c4)c(=O)oc3c2C)OC1(C)C | DLD-1 BRCA2-/- |  |  | 50 µM, mean of replicates A, B | reference: untreated | colony survival | 34.7%
O=C(N/N=C/c1ccc(C[n+]2ccccc2)cc1)c1cccc(C(=O)N/N=C/c2ccc(C[n+]3ccccc3)cc2)n1 | MYC parallel G4 DNA | FRET melting |  | 1 µM, DNA 0.2 µM |  | ΔTm | 4.3 ± 0.3 °C
CC(C)(C)c1cc(-c2ccc3cccnc3n2)nc(-c2ccc3cccnc3n2)c1.COc1ccncc1.[Cl-].[Cl-].[Ru+2].c1ccc2cc3nc4c5cccnc5c5ncccc5c4nc3cc2c1 | A-375 | resazurin |  | together with: light 733 nm, 100 J/cm2 | reference: dark EC50 over light EC50 | phototoxicity index | 32
COc1ccc(Nc2ncnc3ccc(-c4ccc(S(=O)(=O)N5CCN(C)CC5)cc4)cc23)cc1Cl | Leishmania major | intracellular amastigote growth, luciferase | RAW264.7 macrophages |  |  | EC50 | > 15 µM
Cc1ncsc1-c1ccc(C(C)NC(=O)C2CC(O)CN2C(=O)C(NC(=O)CCCCCCCCCCN2CCCC(Nc3ncc(Cl)c(Nc4ccccc4S(=O)(=O)C(C)C)n3)C2)C(C)(C)C)cc1 (stereo not drawn) | 22Rv1 | RNA-seq, item: RWDD2A mRNA |  | concentration not given | reference: DMSO | log2 fold change | -1.51
COC1CN([C@H]2CC[C@H]([C@@]3(C)Oc4c(Cl)cc(C(=O)NCc5c(SC)cc(C)[nH]c5=O)c(C)c4O3)CC2)C1 |  | RNA-seq, item: ARFGEF3 mouse homolog | mouse, HT-1376 xenograft, whole blood | dose not given | reference: vehicle | log2 fold change | 1.25
C(=N\Nc1nc(-c2ccccn2)nc2ccccc12)/c1ccccc1 | Mus musculus | gene silencing, high-content imaging | LDR reporter GFP cells | retest run 2 |  | AC50 | 2.51 µM
C=CC(=O)N1[C@@H](c2ccc3c(c2)OCO3)c2[nH]c3ccccc3c2C[C@H]1C(=O)N1CCN(C)CC1 | human cyclin E1 wild type-3xFLAG:CDK2 | co-IP with TMT proteomics, item: HNRNPA1 |  | concentration not given, P09651 | reference: wild type DMSO | relative co-enrichment | 95%
COc1ccc(NC(=O)CSc2nc3c(oc4ccccc43)c(=O)n2Cc2ccco2)cc1Cl | Mus musculus | gene silencing, high-content imaging | LDR reporter GFP cells | retest, mean of two runs |  | EC50 | 10 µM
O=C(N/N=C/c1ccc2c(ccc[n+]2Cc2ccccc2)c1)C(=O)N/N=C/c1ccc2c(ccc[n+]2Cc2ccccc2)c1 | MYC parallel G4 DNA | FRET melting |  | 1 µM, DNA 0.2 µM, together with: duplex DNA competitor 10 µM |  | ΔTm | 3.8 ± 0.5 °C
COC1OC(C)C(OS(=O)(=O)O)C(OC2OC(C)C(OS(=O)(=O)O)C(OS(=O)(=O)O)C2OS(=O)(=O)O)C1OS(=O)(=O)O (stereo not drawn) |  |  | human plasma | 128 µg/mL | reference: control | prothrombin time prolongation | 0.98 fold

Structure (SMILES) | tested on | assay | system | setting | how to read | endpoint | result
CC(C)(C)NCC(SS(=O)(=O)O)c1ccccc1 (stereo not drawn) |  |  | Schistosoma mansoni-infected mice | 100 mg/kg single, day 42, perfusion day 56 |  | liver weight | 4.6 g
COC1OC(C)C(O)C(OC2OC(C)C(O)C(OC3OC(C)C(O)C(OC4OC(C)C(O)C(OC5OC(C)C(O)C(OC6OC(C)C(O)C(OC7OC(C)C(O)C(OC8OC(C)C(O)C(OC9OC(C)C(O)C(OC%10OC(C)C(O)C(OC%11OC(C)C(O)C(OS(=O)(=O)O)C%11OS(=O)(=O)O)C%10OS(=O)(=O)O)C9OS(=O)(=O)O)C8OS(=O)(=O)O)C7OS(=O)(=O)O)C6OS(=O)(=O)O)C5OS(=O)(=O)O)C4OS(=O)(=O)O)C3OS(=O)(=O)O)C2OS(=O)(=O)O)C1OS(=O)(=O)O (stereo not drawn) |  |  | human plasma | 128 µg/mL | reference: control | prothrombin time prolongation | 0.96 fold
CC(C)C[C@H](NC(=O)[C@H](Cc1ccc(O)cc1)NC(=O)[C@@H](CCCNC(=N)N)NC(=O)[C@@H](CO)NC(=O)[C@H](Cc1ccccc1)NC(=O)[C@H](CC1CCCCC1)NC(=O)[C@H](CC(=O)O)NC(=O)CN1CCN(CC(=O)O)CCN(CC(=O)O)CCN(CC(=O)O)CC1)C(=O)N[C@@H](Cc1c[nH]c2ccccc12)C(=O)N[C@@H](CO)C(=O)O [copper-64 labelled] |  |  | human, brain | concentration not given, 24 h |  | activity concentration | 31.2 Bq/mL and 36.8 Bq/mL and 42.3 Bq/mL and 37.6 Bq/mL and 28.6 Bq/mL and 69.7 Bq/mL
COC1OC(C)C(OC2OC(C)C(O)C(OC3OC(C)C(OC4OC(C)C(O)C(OC5OC(C)C(OC6OC(C)C(O)C(OC7OC(C)C(OC8OC(C)C(O)C(OC9OC(C)C(O)C(OS(=O)(=O)O)C9OS(=O)(=O)O)C8OS(=O)(=O)O)C(OS(=O)(=O)O)C7OS(=O)(=O)O)C6OS(=O)(=O)O)C(OS(=O)(=O)O)C5OS(=O)(=O)O)C4OS(=O)(=O)O)C(OS(=O)(=O)O)C3OS(=O)(=O)O)C2OS(=O)(=O)O)C(OS(=O)(=O)O)C1OS(=O)(=O)O (stereo not drawn) |  |  | human plasma | 128 µg/mL |  | prothrombin time | 15.2 ± 0.3 s
O=[N+]([O-])C(=C\Nc1ccccc1O)/C=N/c1ccccc1O | Mus musculus | gene silencing, high-content imaging | LDR reporter GFP cells | retest run 1 |  | AC50 | 10 µM
O=C(N/N=C/c1ccc2c(ccc[n+]2Cc2ccccc2)c1)N/N=C/c1ccc2c(ccc[n+]2Cc2ccccc2)c1 | MYC parallel G4 DNA | FRET melting |  | 1 µM, DNA 0.2 µM, together with: duplex DNA competitor 10 µM |  | ΔTm | 6.8 ± 0.5 °C
CNS(=O)(=O)Nc1nccc(Cc2c(C)c3ccc(Oc4ncccc4F)cc3oc2=O)c1F | NCI-H322 | cell viability |  | 7 days |  | IC50 | 0.0289 µM
C=CC(=O)Nc1cccc(Cn2ncc3cnc(Nc4cnn(CCOC)c4)nc32)c1 | RAF1 human | binding, KINOMEscan |  | 100 nM | lower = stronger binding | percent of control | 100%
O=C(N/N=C/c1cc[n+](CC2CC2)c2ccccc12)c1cccc(C(=O)N/N=C/c2cc[n+](CC3CC3)c3ccccc23)n1 | MYC parallel G4 DNA | FRET melting |  | 1 µM, DNA 0.2 µM |  | ΔTm | 15.1 ± 0.4 °C
CCC(=O)N1CCN(c2ccc(NC(=O)c3ccc([N+](=O)[O-])o3)cc2Cl)CC1 | Mus musculus | gene silencing, high-content imaging | LDR reporter GFP cells | 30 h, confirmation, mean of two runs |  | Emax | 38%
CN1CCCNC(=O)c2cccc(c2)C(=O)NCCCN(C)CCCNc2cccc3c2C(=O)c2cccc(c2C3=O)NCCC1 | SAS | RNA-Seq, item: CCDC14 mRNA |  | 1 µM, 6 h | reference: untreated cells | log2 fold change | -0.706
C[n+]1cccc2cc(/C=N/NC(=O)c3cc(C(=O)N/N=C/c4ccc5c(ccc[n+]5C)c4)ncn3)ccc21 | MYC parallel G4 DNA | FRET melting |  | 1 µM, DNA 0.2 µM |  | ΔTm | 2.2 ± 1.3 °C
Nc1ncc(-c2cc(-c3cnn(CC(F)(F)F)c3)ncc2F)nc1C(=O)NC1CNCC(F)C1 (stereo not drawn) | CDC2L5 | KINOMEscan |  | 1 µM | reference: DMSO control | remaining binding | 100%
N=C(S)N/N=C/c1ncc(C(F)(F)F)cc1Cl | Mus musculus | gene silencing, high-content imaging | LDR reporter GFP cells | 30 h, retest, mean of two runs |  | Emax | 87%
C[n+]1ccc(/C=N/NC(=O)c2cccc(C(=O)N/N=C/c3cc[n+](C)c4ccccc34)n2)c2ccccc21 | MYC parallel G4 DNA | FRET melting |  | 1 µM, DNA 0.2 µM, together with: duplex DNA competitor 10 µM |  | ΔTm | 13.7 ± 0.5 °C
C=C(NC(=O)c1csc(-c2nc3c(cc2O)-c2nc(cs2)C(=O)NC(C(C)O)C(=O)NC(=C(C)OC)c2nc(cs2)C(=O)NC2c4nc(cs4)C(=O)NC(COC(=O)c4c5c6c(cccc6n4O)COC(=O)C(OC4CC(C)(O)C(N(C)C)C(C)O4)C2OC5)c2nc-3cs2)n1)C(N)=O (stereo not drawn) | Enterococcus faecalis |  | vancomycin-intermediate, 10 isolates | pH 7.0 |  | MIC50 | 0.0312 µg/mL (≈ 0.0217 µM)
O=C(N/N=C/c1cc[n+](CC2CC2)c2ccccc12)c1cc(C(=O)N/N=C/c2cc[n+](CC3CC3)c3ccccc23)ncn1 | MYC parallel G4 DNA | FRET melting |  | 1 µM, DNA 0.2 µM |  | ΔTm | 4.7 ± 0.8 °C
CCc1nnc(NC(=O)c2cccc(C(=O)Nc3nnc(CC)s3)n2)s1 | Mus musculus | gene silencing, high-content imaging | LDR reporter GFP cells | retest run 1 |  | AC50 | 10 µM

Some of these lines once more:
Structure (SMILES) | tested on | assay | system | setting | how to read | endpoint | result
C[n+]1cccc2cc(/C=N/NC(=O)c3cc(C(=O)N/N=C/c4ccc5c(ccc[n+]5C)c4)ncn3)ccc21 | MYC parallel G4 DNA | FRET melting |  | 1 µM, DNA 0.2 µM |  | ΔTm | 2.2 ± 1.3 °C
Nc1ncc(-c2cc(-c3cnn(CC(F)(F)F)c3)ncc2F)nc1C(=O)NC1CNCC(F)C1 (stereo not drawn) | CDC2L5 | KINOMEscan |  | 1 µM | reference: DMSO control | remaining binding | 100%
N=C(S)N/N=C/c1ncc(C(F)(F)F)cc1Cl | Mus musculus | gene silencing, high-content imaging | LDR reporter GFP cells | 30 h, retest, mean of two runs |  | Emax | 87%
C[n+]1ccc(/C=N/NC(=O)c2cccc(C(=O)N/N=C/c3cc[n+](C)c4ccccc34)n2)c2ccccc21 | MYC parallel G4 DNA | FRET melting |  | 1 µM, DNA 0.2 µM, together with: duplex DNA competitor 10 µM |  | ΔTm | 13.7 ± 0.5 °C
C=C(NC(=O)c1csc(-c2nc3c(cc2O)-c2nc(cs2)C(=O)NC(C(C)O)C(=O)NC(=C(C)OC)c2nc(cs2)C(=O)NC2c4nc(cs4)C(=O)NC(COC(=O)c4c5c6c(cccc6n4O)COC(=O)C(OC4CC(C)(O)C(N(C)C)C(C)O4)C2OC5)c2nc-3cs2)n1)C(N)=O (stereo not drawn) | Enterococcus faecalis |  | vancomycin-intermediate, 10 isolates | pH 7.0 |  | MIC50 | 0.0312 µg/mL (≈ 0.0217 µM)
